Measurements from different studies.
Every numbered part comes from another study and shows a few of its results, in no order.

Set 1 — technique: RNA Bind-n-Seq; form: RNA; sample: in vitro; concentration: 365 nM; baseline: no-protein control; reading: higher = stronger binding; quantity: RBNS enrichment (R)
Target: RNA binding protein fox-1 homolog 2, RRM domain, GST-SBP tag (RBFOX2, Homo sapiens, UniProt O43251-10, residues 100-194)
Setting: natural RNA segment, single round, ends assumed
Constant ends, left off below: GGGAGUUCUACAGUCCGACGAUC … UGGAAUUCUCGGGUGCCAA
Construct (chain): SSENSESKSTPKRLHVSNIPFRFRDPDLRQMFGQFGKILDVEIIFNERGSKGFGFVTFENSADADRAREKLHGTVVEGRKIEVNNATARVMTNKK
GUGUGGUGGCGCAUGCCUGUAAUCCCAGCUACUUGGGAGACUGAGGCAAGAGAAUCACUUGAACCCGGGAGGUGGAGGUGGCAGUGAGCCGAGAUUGCGCCAUUGCACUC: 2.17
CCAUUCUUCUCAAGCAAGGAUUGCCAGCGCGCGCUGACACAGUGAUGGGCUGCCCAGGGCUGGAGGGGACGCUGUUCCUCCCGCCGCCACUGCCCAACCUUUCCUGAUAA: 0.255
ACCCUUGGGUGCAGGUCUUUGAAAACAAAGGUGCCAUGAUGGGCUGUUCUAACCCCCACCCCCACUGCCAGGUAUGGGCCAGCAGUUUCCUGCCAGAUAUUGCCCAGCGU: 0.237
CCCCUGCAUGGCAGGACCCCUGUGCUUCAGUUCUAAUAAAUCUGAAUUUGGCUGUGCAAAGUCCCCUAGCCAUGCUCGCAGGAGGGCGAUGUCCAGGGCAGCUUCUAGUC: 1.03
GAAAGAACAUGGCUACCGUGAGACAGCCCUGUGGGCCCUGCUACCCCUCCUAUUUCUGCCUCCCUGCUGGGAGCUUUCCUGUUCCCUGGUGUUCCACGAAGGAGGCUCUU: 0.334
GCCCAGCCCCGCCCCAGCCCCUGCUCAGGUCUGAGUAUGGCUGGGAGUCGGGGGCCACAGGCCUCUAGCUGUGCUGCUCAAGAGACUGGAUCAGGGUAGCUACAAGUGGC: 0.298
UUAUUUUACCAGCUAUUUAUUGAGUGUCUUUUAUGUAGGCUAAAUGAACAUAGGUCUCUGGCCUCACGGAGCUCCCAGUCCUAAUCACAUUCAAGGUCACCAGGUACAGU: 0.663
GAUUCUAUUUCCCCACACCUGUUCCUUUUCUCGGUUUGCUGAGGGCCUCUUGGAUCCACUGGCCCAGAGAUUUAAAAGUUUGGGGUUGAGGAUGUGUGUAGCUCAGUUGG: 0.892
UGCUGGGGCCGGGCCGAGGACUCCUCAGAGGCGUUUCCUGCAGAGCCAUUAUUUUGACGCCUUUUUGUUUUCUUUUUGAAAAACAAAAUAUUAUUCCCCUGCUUCAUGGC: 0.555
GUCAUGGAACUGAACAUUCAUCGAUGGUCUCCAUGUAUUCAUUUAUUCACUUGUUCAUUCAAGUAUUUAUUGAAUACCUGCCUCAAGCUAGAGAGAAAAGAGAGUGCGCU: 0.306
UUUCUCUUAAGCAUUUCUCCAUGCCGUGGCCGUGAGUAGUUCUUCAAAAGCAUGUUUUUGAUAAUUGGGAGUCAAGUGGUUGUAAAUUUAUAAGUUAUGCAGUUGUUUCC: 25.6
ACUUGUGAGAAUCAGGAAAGAAUUCCUCGAGUUGCUUUGCAUCCUCUUGGACCAGGGCUUGCAAGGCGAUUUGGGUUUCUGUGAGCUUGCCCAGUUGACCCGAAAAAUAG: 0.702

Set 2 — technique: RNA Bind-n-Seq; form: RNA; sample: in vitro; concentration: 1 µM; setting: whole 134-nt RNA, ends assumed; with: 150 mM KCl; baseline: input library; reading: higher = stronger binding; quantity: log2 enrichment
Target: Ras GTPase-activating protein-binding protein 1, C-terminal RGG region (G3BP1, Homo sapiens, UniProt Q13283)
Sequence of UniProt Q13283 (whole entry, looked up): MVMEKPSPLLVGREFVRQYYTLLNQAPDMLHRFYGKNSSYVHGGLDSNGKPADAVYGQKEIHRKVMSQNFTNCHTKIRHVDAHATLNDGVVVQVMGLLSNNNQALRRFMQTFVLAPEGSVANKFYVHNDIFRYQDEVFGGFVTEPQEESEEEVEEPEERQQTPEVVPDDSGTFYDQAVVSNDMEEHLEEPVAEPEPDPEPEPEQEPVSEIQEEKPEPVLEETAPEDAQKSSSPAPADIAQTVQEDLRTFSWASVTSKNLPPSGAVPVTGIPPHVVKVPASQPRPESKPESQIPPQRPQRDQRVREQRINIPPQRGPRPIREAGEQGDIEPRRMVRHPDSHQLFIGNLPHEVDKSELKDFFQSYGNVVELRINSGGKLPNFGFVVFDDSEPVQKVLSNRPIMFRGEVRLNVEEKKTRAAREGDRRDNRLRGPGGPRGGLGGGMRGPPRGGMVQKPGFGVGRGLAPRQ
Constant ends, left off below: GGGAGUUCUACAGUCCGACGAUC … UGGAAUUCUCGGGUGUCAAGG
AGUCCUGUGCUACACAUCGUAUGUACCGAAUCGGGAAAAAGGGUGGGUUUUUUUGGGAAAGUAUUAUGUUACGCCGUUCGGAUCUGCACU: 0.947
CCUGUGCUACACAUCGUAUGUACCGAAUCGGGUUUUUUGGGGUUUUUUGGGUUUUUUGGGGAAAGUAUUAUGUUACGCCGUUCGGAUCUG: -1.16
UAACUUUAGAGGAGGAUCUGAUGGAUAUGGCAGUGGCCGUGGAUUUGGGGAUGGCUAUAAUGGGUAUGGAGGAGGACCUGGAGGUGGCAA: -0.52
CAAGUCCUGUGCUACACAUCGUAUGUACCGAAUCGGGAAAAAGGGAAAGGGUGGGAAAGUAUUAUGUUACGCCGUUCGGAUCUGCACUUC: 1.8
UGGCCCUGGUGGCAUGCGGGGAGGAAGAGGUGGCCUCAUGGAUCGUGGUGGUCCCCGUGGAAUGUUCAGAGGUGGCCGUGGUGGAGACAG: 1.83
CAAGUCCUGUGCUACACAUCGUAUGUACCGAAUCGGGAGGGUGGGAAAAAAAGGGAAAGUAUUAUGUUACGCCGUUCGGAUCUGCACUUC: 0.341
CACAGACAACACGCACCCACACAGACACAGAGGGAAGGGGUUGGGAUGGGGACAGGGUGCACAGCAGGGCGGGGUAGGACCCCAGCCACU: -1.03
CACAGACAACACGCACCCACACAAAAACAGAGGGAAGGGGUUGGGAUGGGGACAGGGUGCACAGCAGGGCGGGGUAGGACCCCAGCCCCU: -0.365
UUUCUCCAAGGACAUCAAGGUGCCCAAGAGCCGCUACCUGGGCUACAUCAAGGACUACGAGGGAGCGACGCUGAUGGAGUGUGAGCUGAA: -1.71
UCCUGUGCUACACAUCGUAUGUACCGAAUCGGGUUUUUGGGAAAAAGGGAAAAAAAGGGAAAGUAUUAUGUUACGCCGUUCGGAUCUGCA: -0.746
AGUCCUGUGCUACACAUCGUAUGUACCGAAUCAAAUUUAAACCCCCAAAUUUUUAAAAAAGUAUUAUGUUACGCCGUUCGGAUCUGCACU: -0.86
UGGCCCUGGUGCCAUGCGGGGAGGAAGAGGUGGCCUCAUGGAUCGUGGUGGUCCCGGUGGAAUGUUCAGAGGUGGCCGUGGUGGAGACAG: 1.88
CUCAAGUCCUGUGCUACACAUCGUAUGUACCGAAUCGGGGAAGGAAGGGGAAGGAAAGUAUUAUGUUACGCCGUUCGGAUCUGCACUUCC: -1.12
GCAGGAAGUAAAAACAAAUGGAAAUGCUUCGGAUAGUGGCAGGGGUGGGGGUUGCUAAAGAAAGGGUGGGAUGGGAGUGGGUAAAGAGUU: 1.24

Set 3 — technique: protein-binding microarray; form: double-stranded DNA, one strand shown; sample: in vitro; concentration: 250 nM; setting: 60-bp whole probe; with: salmon DNA 0.4 mg/ml; baseline: random background probes; reading: higher = stronger binding; quantity: log fluorescence; constant ends, left off below: GCCTAGCAC … GTCTTGATTCGCTTGACGCTGCTG
Target: Interferon regulatory factor 7, full length, phosphomimetic (IRF7, Homo sapiens, UniProt Q92985, residues 1-503, S101K/S471D/S472D/S475D/S476D/S477D/S483D/S484D/S487D)
Sequence of UniProt Q92985 (whole entry, unmodified, looked up): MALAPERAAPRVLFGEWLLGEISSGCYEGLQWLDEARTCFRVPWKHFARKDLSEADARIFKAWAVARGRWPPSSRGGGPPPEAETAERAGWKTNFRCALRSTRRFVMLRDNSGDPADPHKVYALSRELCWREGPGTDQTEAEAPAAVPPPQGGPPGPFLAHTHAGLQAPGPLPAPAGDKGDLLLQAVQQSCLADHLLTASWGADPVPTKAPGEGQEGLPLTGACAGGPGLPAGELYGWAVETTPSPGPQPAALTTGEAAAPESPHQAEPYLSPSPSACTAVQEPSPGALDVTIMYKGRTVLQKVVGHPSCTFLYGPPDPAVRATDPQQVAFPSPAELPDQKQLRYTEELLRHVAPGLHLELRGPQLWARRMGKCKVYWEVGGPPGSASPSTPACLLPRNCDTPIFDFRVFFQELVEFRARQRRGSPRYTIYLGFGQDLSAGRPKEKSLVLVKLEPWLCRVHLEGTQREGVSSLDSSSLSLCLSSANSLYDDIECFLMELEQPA
GTGTTTCTCAACCATTTTGTTGTGCTA: 1.79 z-score
GACGGTTTCGGGGATCGGGACGTGCTA: 2 z-score
GACGAGCTCAGTTTCGAGACGTGCTAG: 3.72 z-score
GACGGTTTCCTTTTTCTGACGTGCTAG: 5.39 z-score
TTAGGTCTCGGTTTCGATTAGTGCTAG: 11.3 z-score
TTAGGTATCGCTTTCGGTTAGTGCTAG: 5.03 z-score
GATGATATCAGTATCGAGACGTGCTAG: -0.168 z-score
TTCTTAATGCTTCTGGACCAGTGCTAG: -0.0563 z-score
TTAAGTTTCGGTATCGGTTAGTGCTAG: 11.2 z-score
GACGATCTCAGACTGGAGTCGTGCTAG: -0.052 z-score
GACGGAATGGGACTGGGGACGTGCTAG: -0.455 z-score
TTAGGTATCCACTTTCGGTTAGTGCTA: 2.25 z-score
TTAGGTATCGGGTTACGGTTAGTGCTA: 3.41 z-score
AACGGTATCGGTCTCGGGACGTGCTAG: 0.783 z-score
TTAAGTTTCGGTTCCGGTTAGTGCTAG: 12.7 z-score
TAAGATCTCAGTTTCGATTAGTGCTAG: 9.16 z-score
TTAGAACTGAGTTTCCATTAGTGCTAG: 2.2 z-score

Set 4 — technique: universal PBM; form: double-stranded DNA, one strand shown; sample: in vitro; concentration: 600 nM; reading: higher = stronger binding; quantity: E-score
Target: Sal-like protein 4, full length isoform A (SALL4, Homo sapiens, UniProt Q9UJQ4, residues 1-1053)
Sequence of UniProt Q9UJQ4 (whole entry, looked up): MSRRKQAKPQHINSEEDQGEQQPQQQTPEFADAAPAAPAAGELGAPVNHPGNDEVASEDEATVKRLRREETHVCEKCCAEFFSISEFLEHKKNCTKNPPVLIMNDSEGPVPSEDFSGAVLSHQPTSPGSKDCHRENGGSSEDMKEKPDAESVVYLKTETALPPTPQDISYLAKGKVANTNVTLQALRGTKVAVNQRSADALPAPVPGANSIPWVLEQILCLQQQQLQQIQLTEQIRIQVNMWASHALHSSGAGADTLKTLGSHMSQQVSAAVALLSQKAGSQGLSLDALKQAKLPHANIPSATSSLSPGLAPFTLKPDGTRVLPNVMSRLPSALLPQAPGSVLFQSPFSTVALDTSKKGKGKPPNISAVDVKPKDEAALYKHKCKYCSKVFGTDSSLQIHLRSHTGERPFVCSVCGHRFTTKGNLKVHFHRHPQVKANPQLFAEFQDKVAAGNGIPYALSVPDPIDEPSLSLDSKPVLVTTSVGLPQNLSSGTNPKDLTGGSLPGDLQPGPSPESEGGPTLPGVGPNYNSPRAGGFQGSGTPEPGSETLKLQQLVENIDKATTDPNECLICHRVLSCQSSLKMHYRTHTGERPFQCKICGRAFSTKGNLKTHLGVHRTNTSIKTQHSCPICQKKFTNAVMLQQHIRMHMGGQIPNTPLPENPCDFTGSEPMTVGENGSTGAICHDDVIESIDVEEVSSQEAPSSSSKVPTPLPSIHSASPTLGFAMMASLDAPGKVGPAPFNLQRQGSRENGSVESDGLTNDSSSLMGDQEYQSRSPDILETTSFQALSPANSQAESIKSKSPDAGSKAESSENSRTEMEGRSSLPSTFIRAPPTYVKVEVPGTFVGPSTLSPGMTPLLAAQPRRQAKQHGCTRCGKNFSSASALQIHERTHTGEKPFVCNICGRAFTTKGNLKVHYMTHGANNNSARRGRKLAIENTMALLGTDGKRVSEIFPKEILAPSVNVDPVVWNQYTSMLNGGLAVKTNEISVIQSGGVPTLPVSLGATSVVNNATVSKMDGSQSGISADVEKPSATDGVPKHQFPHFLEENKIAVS
Setting: 8-mer, flanks averaged, mean of replicates
CCTAGCGA: -0.192
CGAGGCCA: -0.286
AAGCCCGC: -0.228
GCGATGAC: -0.101
CTAAAAGA: 0.132
ATCGAACA: 0.0183
CCTCCTGC: -0.133
ATCGCTCA: -0.111
AACGCCAG: -0.219
AGCATCGC: -0.221
ACTACCCA: -0.0695
CTCAGTAA: 0.0112
ACGTAACC: -0.0346
ACCTGTCT: -0.0792
AGAGCCCA: -0.115
CATCCCCC: -0.312
ACTTAAGA: 0.241
GCAACTAA: 0.0359
ACTTGACG: -0.048
CGCAAACA: 0.0707
CGCCAGCG: -0.336
GATTTCGA: 0.0535
AGAATCAT: 0.268
AAAAGAAT: 0.302
AACGGGGT: -0.305

A few entries again (set 4):
ATCGAACA: 0.0183
CCTCCTGC: -0.133
ATCGCTCA: -0.111
AACGCCAG: -0.219
AGCATCGC: -0.221
